Experimental data gathered from unrelated publications.
Every numbered part comes from another study and shows a few of its results, in no order. Changes are numbered by the printed parent chain.

Sample 1 — technique: RNA Bind-n-Seq; molecule type: RNA; matrix: in vitro; tested at: 365 nM; reference: no-protein control; reading: higher = stronger binding
Target: RNA binding protein fox-1 homolog 2, RRM domain, GST-SBP tag (RBFOX2, Homo sapiens, UniProt O43251-10, residues 100-194)
Notes: natural RNA segment, single round, ends assumed
Constant ends, left off below: GGGAGUUCUACAGUCCGACGAUC … UGGAAUUCUCGGGUGCCAA
Target sequence (chain): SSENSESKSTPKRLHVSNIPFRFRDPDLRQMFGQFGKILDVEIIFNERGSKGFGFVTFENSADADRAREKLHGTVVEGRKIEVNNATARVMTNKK
Strand	RBNS enrichment (R)
AACCUGAGCCUUUUCUUAUAUAAGACAAGAAUAUGUUCACAUCUUGGUAUGUGGCCAUAUUUAUAGAAUGCUGAACUCAAUGUGCAAGUUGUACUGUAUGCAGUUUUGUA	0.402
AGUGGUUGCUCUGCUAAAAUAAGGGGCAUUUAAAAGCCAAAUGUAACCAUGGGAUUCAGAAGAGCACUAACCAGUGCAGCAUAGAAAUAGGAAUAGCGUAGGAAUAGAAA	0.736
GAUUUUAAUUAGCUGUGAGAUUUAUGCACAAAGUGAAUAUUUAGCUGAUAGAAAUUAUGAUUUUGUUUCAAAUGUGGCUUUGCUUUUGUUUUGUUUUGUUUUGUUUUUUC	7.31
CGUUGGAAAUGUGUGCUUUUUAGUGUUUACUAAAGUGAUAAGAAAAUAAAGCAUUCAAUACACUAUAGAUUCCAAAACAUAACAUUGCACCAAAUAGAAAUGUAUAUUUU	0.686
AGCCUGCACAUCUCUCUCUUUGGCCUGCUGGAGGGUACUCUGAUUCUCUGGCUGGCCGCCUGCGUCCCAGAGCACCAGAGUCCCUUCCCGACAGGCUAGGGUUAGGCAAU	0.298
UUCUUCUGCCUCGCCUGAAUCCCCCAUAAACACCAGAUGAUUGAGUCUACCUUCUUUCCUUGGCCCGCUCCCUUUUUCUUCUGCCUCACUUGAAUCCCCCGUAAACACCA	1.02
CAGCUUGGGCUCUCCUGGCGCCCCGUAGCAUCGAGUGUCUUCUUUGUCUUCUUUCUCUCCUCACCCAACUCCCUUUGCCUCUCCCCAAACCGGGCCGCCAGGAUCCCUCC	1.41
UCCCUGUGCAGACAGGACUAUGGUCUUCUUGCCCAAAGACUUUCAUCUGGACUGUCUAUAGAGUAAAUAUGCUCUCAUGGUUCAUGCGACCCCUGGUGGCUGGAGUAAGC	0.29
AGCUUGCUCCCAGCCCCCUCCCCAAUUUGGUUCCGUUGACAUAGGAAUUUUACGAUUCCCAAACCAUGCAGGGGCUGAGCCUUCCUUAUGAUGACUUUGUUCUCCCUCCC	0.439
UGGGGAAGCUGCCGCCCACGGGCUCUGCCCCUUCCAGCUGGAGCCGCCCGUGCCUCCAGGGGCCAAGAGGAUGAUGUCGUGGCCUCCAUUCUCGUUUCUAUGCAGCCCCA	0.456
UGGCCCCUGAGAAUGCCUGUGUUAGUUAAAGACAGAUGGGAUCAAGGCGAGGGCUACAGGCUGAGAGAGCUUGAGCUCAGAGGCUUUUAUGAACCGUUUCCUCUGAGGGC	2.01
AAACUUCUAAAAAAGGUCAUGAGAUAAAACAGCUAUUCUUAUGCCUAAAUUAACAGUGGAAAAUACUUUUCUGUAAACAGCCAGGGUAAUAAAAACCAUGAACUAAUUGU	0.483

Sample 2 — target: CCND1, cyclin fold, Cln2 fusion (human); technique: yeast growth competition, sequencing; matrix: yeast; notes: weak parent motif; reference: not given; reading: higher = stronger binding
Starting sequence: SAMHD1 docking peptide (human); ASKSRVQLFKDDP
Substitution	normalised enrichment score
L8D	0.183
K10P	0.544
S2N	0.205
Q7M	-0.0498
Q7S	-0.0756
K10V	0.55
D11L	-0.0753
F9Q	0.274
K3N	0.565
K3M	0.609
V6K	0.471
V6H	0.203
V6Q	-0.46

Sample 3 — technique: Spec-seq; molecule type: double-stranded DNA, one strand shown; matrix: in vitro; tested at: not given; notes: whole probe, mean of replicates; reference: not given; reading: lower = stronger binding; constant ends, left off below: GAGTCGTCTCGTCAGCAC … CCGTAGAGCACTCAGGTC
Target: Transcription factor SOX-2, HMG box (Sox2, Mus musculus, UniProt P48432, residues 41-119)
UniProt P48432, sequence (41-119, looked up): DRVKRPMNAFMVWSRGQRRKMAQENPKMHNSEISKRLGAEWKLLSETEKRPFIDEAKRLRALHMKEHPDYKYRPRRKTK
Strand	relative binding energy
CATTATT	-2.15 ln ratio
TAGAGTT	0.835 ln ratio
CATGTGC	0.573 ln ratio
CATGACG	0.127 ln ratio
CATTCGA	-0.229 ln ratio
CATGCCT	0.572 ln ratio
TACAGTT	-0.107 ln ratio
GGACGTT	1.57 ln ratio
CATGCAG	0.0777 ln ratio
CATTTTA	-0.258 ln ratio
TGTGGTT	0.296 ln ratio
AGTTGTT	-0.94 ln ratio
CATACTC	0.14 ln ratio
ACTGGTT	-0.268 ln ratio
GGCCGTT	1.19 ln ratio
GGGCGTT	1.69 ln ratio
CATGCCG	0.626 ln ratio

Sample 4 — technique: DHFR PCA, deep sequencing; matrix: yeast; together with: (+)-ABA 0.032 µM; reference: wild-type fitted maximum; reading: higher = stronger binding
Target: ABI1, truncated, D143A, DHFR fusion (Arabidopsis thaliana)
Notes: methotrexate growth selection, single substitutions
Starting sequence: PYL1, truncated, DHFR fusion (Arabidopsis thaliana); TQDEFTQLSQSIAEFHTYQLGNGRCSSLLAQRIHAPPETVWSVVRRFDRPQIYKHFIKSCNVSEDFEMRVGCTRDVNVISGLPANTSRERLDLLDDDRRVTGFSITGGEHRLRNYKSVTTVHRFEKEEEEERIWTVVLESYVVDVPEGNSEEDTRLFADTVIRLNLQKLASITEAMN; partner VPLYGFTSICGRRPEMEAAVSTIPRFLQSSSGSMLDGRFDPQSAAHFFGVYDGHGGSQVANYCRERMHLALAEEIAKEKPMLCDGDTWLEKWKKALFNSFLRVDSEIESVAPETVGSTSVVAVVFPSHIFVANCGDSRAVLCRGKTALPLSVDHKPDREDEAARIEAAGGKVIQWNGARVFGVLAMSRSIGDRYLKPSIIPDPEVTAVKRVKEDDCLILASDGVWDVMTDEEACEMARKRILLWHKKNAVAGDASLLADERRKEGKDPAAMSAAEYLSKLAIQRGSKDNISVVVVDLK
Substitution	relative binding score [%]
L28E	2.86
C72L	0.208
E131R	49.6
L164S	7.36
T154N	-14.9
P146W	-1.34
S42T	5.47
V145C	-10.4
L29Y	0.444
S80W	51.4
Q10M	12
P37K	0.248
T1R	22.6
E125I	33
R46V	-6.76
L156E	-0.596
A13Q	29.3
E67Y	-1.3
L112F	6.66
S117P	4.28
L169W	-0.739
G148R	-0.852

Sample 5 — technique: aptamer microarray, sandwich; molecule type: DNA with 2'F-ANA; matrix: in vitro; tested at: 200 nM; together with: Cy3 exosite-II aptamer, 400 nM; reading: higher = stronger binding; strand: GGTTGGTGTGGTTGG
Target: Prothrombin, mature alpha-thrombin (F2, Homo sapiens, UniProt P00734)
Notes: whole 15-mer aptamer, many near background
Modification	mean fluorescence intensity [a.u.]
2'F-ANA at 2 5 6 7 9 10 13 15	75.2
2'F-ANA at 1 6 12 13 14	64
2'F-ANA at 3 4 6 8 12 15	1010
2'F-ANA at 2 8 9 11 12 13	550
2'F-ANA at 1 4 7 8 9 12 13	193
2'F-ANA at 2 4 6 8 10 11 14	57.1
2'F-ANA at 1 5 6 8 10 12 13 15	49.5
2'F-ANA at 1 5 6 11 12 13 14	50
2'F-ANA at 1 3 4 11 13 15	138
2'F-ANA at 2 3 4 8 9 10 11 12 14 15	160
2'F-ANA at 1 2 3 5 7 8 12 13	110
2'F-ANA at 1 2 6 7 9 10 11 12 13 14	50.3
2'F-ANA at 2 3 5 6 7 10 12 13 14 15	53.7
2'F-ANA at 2 3 7 8 9 13 15	896
2'F-ANA at 1 2 3 5 6 7 8 11 13 15	53.1
2'F-ANA at 1 4 6 11 14 15	50.4
2'F-ANA at 1 2 6 10 11 13 14	105
2'F-ANA at 1 2 3 4 6 8 9 14 15	60.5
2'F-ANA at 1 2 3 4 6 8 9 10 11 13 15	102
2'F-ANA at 1 3 5 6 7 9 10 11 13	46.5
2'F-ANA at 8 11 12 14 15	236
